Experimental data gathered from unrelated publications.
Parts stem from different laboratories: compare values within a part only. Changes are numbered by the printed parent chain.

Study 1
Target: Centromere-binding protein 1, full length, His-tagged (CBF1, Saccharomyces cerevisiae, UniProt P17106, residues 1-351)
UniProt P17106, sequence (whole entry, looked up): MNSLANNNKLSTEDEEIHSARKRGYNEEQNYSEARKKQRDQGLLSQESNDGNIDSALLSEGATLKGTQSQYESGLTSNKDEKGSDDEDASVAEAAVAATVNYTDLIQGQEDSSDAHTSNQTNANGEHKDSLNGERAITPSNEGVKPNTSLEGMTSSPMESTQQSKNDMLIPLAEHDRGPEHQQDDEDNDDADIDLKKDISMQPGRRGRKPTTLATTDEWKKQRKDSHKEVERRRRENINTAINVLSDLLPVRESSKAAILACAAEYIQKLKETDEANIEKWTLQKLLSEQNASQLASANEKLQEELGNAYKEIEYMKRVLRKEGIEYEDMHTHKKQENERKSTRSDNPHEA
Method: competition protein-binding microarray
Form: double-stranded DNA, one strand shown
Medium: in vitro
Concentration: 2 µM
Notes: whole 60-bp probe, lowest competitor level
With: Pho4 competitor, 0.05 µM
Direction: higher = stronger binding
| Strand | fluorescence intensity |
| --- | --- |
| CGGAAAGGGCTGGGCCACGTGGGCGGCTGCTGAGTGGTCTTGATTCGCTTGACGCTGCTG | 673 a.u. |
| GACTCTGAAAAGGGTACCGTGACTCGGAAAGAAGTTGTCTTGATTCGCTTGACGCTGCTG | 410 a.u. |
| AATATTGGCCTTTTGCACGTTCGCGACTAAACGAGTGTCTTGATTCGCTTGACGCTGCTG | 112 a.u. |
| TAATACTATCTCCAACACGTGAATTAGCAAGCCAAAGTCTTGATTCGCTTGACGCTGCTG | 1140 a.u. |
| CTTTCCCGATCTTGTCACGTGGGTGTAGCACATTTGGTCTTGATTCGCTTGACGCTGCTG | 4790 a.u. |
| ATGGACCCGCATAGAAACGTGAGACTGAGAGGATATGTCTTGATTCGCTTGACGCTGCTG | 122 a.u. |
| TCAGTTCAAGCAGGGAACGTGCCAGACATGGCTAGTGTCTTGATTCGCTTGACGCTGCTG | 79.9 a.u. |
| AAGATATATGAATAGGACGTGTCGGTAGAACTAGTAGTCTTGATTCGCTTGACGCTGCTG | 72.2 a.u. |
| TGGCAACAGAGAAAGCACGCTTGTAGAACCAACCTTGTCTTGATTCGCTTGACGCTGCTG | 63.1 a.u. |
| CTTCTGTAAATTTGCCGGGTGGGTGGACGCGCCCCGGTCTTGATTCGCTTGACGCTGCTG | 88.8 a.u. |
| CAATGGGTAAGCAGAGGCGTGCGATCCCTGTGTGGTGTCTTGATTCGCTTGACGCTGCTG | 52.7 a.u. |
| CAAGAGACTCGCGACCACGTGGAACGATCCAACTACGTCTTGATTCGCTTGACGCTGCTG | 839 a.u. |
| CTTTCCCGATCTTGTTCAGTGGGTGTAGCACATTTGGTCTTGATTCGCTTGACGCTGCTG | 66.5 a.u. |
| GGTTTGTCCGTTTTATGACTCTCCTCAACAAGATATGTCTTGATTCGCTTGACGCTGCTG | 103 a.u. |
| GCTGACCCTATAACGCGCGTGAAGTAACAGCGATCTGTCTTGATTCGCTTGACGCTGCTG | 77.9 a.u. |
| CCTTTGAAACGTACCCACGCATTTGCTAAAGAAAAAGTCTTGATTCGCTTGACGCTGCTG | 66.7 a.u. |
| CTTGCCATACCTTCACACGGGGTTCTTTGAGGCACTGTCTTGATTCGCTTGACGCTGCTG | 84.7 a.u. |
| CATACCCAACCTTGTGATGTGGGTGAAGATATTTGTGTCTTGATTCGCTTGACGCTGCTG | 83.3 a.u. |
| CTTCTGTAAATTTGTCACCCTACTTGACGCGCCCCGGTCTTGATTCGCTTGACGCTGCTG | 93.2 a.u. |

Study 2
Target: CCND3, cyclin fold, Cln2 fusion (human)
Method: yeast growth competition, sequencing
Medium: yeast
Notes: weak parent motif
Reference: not given
Direction: higher = stronger binding
Starting sequence: RB1 docking peptide (human); PKPLKKLRFDIEG; partner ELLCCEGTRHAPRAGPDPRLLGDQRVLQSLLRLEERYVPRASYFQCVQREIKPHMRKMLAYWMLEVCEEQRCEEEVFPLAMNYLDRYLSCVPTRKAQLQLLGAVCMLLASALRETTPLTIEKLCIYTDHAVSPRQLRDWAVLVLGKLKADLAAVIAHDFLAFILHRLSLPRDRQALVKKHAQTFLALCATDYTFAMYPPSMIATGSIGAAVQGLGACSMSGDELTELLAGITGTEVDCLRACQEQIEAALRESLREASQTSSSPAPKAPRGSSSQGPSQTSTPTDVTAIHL
| Substitution | normalised enrichment score |
| --- | --- |
| P1M | 0.0101 |
| L4T | 0.0795 |
| E12I | 0.196 |
| F9C | 0.103 |
| K6A | 0.175 |
| K2H | 0.0791 |
| I11L | 0.156 |
| I11G | 0.083 |
| P1W | 0.118 |
| P1E | 0.0708 |
| G13Y | 0.0232 |
| K2L | 0.152 |
| K2T | 0.0519 |
| D10G | 0.291 |
| K6E | 0.0307 |
| G13Q | 0.124 |

Study 3
Target: RNA binding protein fox-1 homolog 2, RRM domain, GST-SBP tag (RBFOX2, Homo sapiens, UniProt O43251-10, residues 100-194)
Method: RNA Bind-n-Seq
Form: RNA
Medium: in vitro
Concentration: 365 nM
Notes: natural RNA segment, single round, ends assumed
Reference: no-protein control
Direction: higher = stronger binding
Target sequence (chain): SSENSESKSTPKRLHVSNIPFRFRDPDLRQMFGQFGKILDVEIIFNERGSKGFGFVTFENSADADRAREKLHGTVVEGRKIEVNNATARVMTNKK
| Strand | RBNS enrichment (R) |
| --- | --- |
| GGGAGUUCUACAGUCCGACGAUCAUUUGACACCAAUAUGGGCAAAAUUAGAUAACCUUUUGGUUAAUAUAAAUGAUUUUGAUUUGGAGGCCUAAUUUGUAGAUUGUGAAAGCAGCUUUUAGUUUAACUUAUUCUGGAAUUCUCGGGUGCCAA | 0.919 |
| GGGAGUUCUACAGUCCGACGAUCGAUGGGAGGUCUCACCGGCCACAGUGAGGGUUGUUUCCUGACAAGACUUUUGUGUUAAGGAUGUGUUGUGUGCUGGUAGAUGUUCAGGAGUGGCUCUGACCCCCAACCUAUGGAAUUCUCGGGUGCCAA | 1.1 |
| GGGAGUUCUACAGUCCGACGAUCUGUUUCUACUGCUUUAGUUUUUUUUAAAGUUCUCCAGUGUCCCCAAGAGGUAUUAGAAUCUUGCUGUACCCAAGCAAGACGUUAAUUUUUCUUUUAACUGUUUUGGGGAGUGGAAUUCUCGGGUGCCAA | 0.554 |
| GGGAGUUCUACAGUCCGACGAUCUUUUUAUUUUUUGUAAUUUAUCUUUAACUCCUUUUGCAUUUUGUAUAACAGAUUGCUUAACUUCUACUUGCCAACAUCUGCCUUGCUGGACUUGUAUGGGAUUGUCUUCUUGGAAUUCUCGGGUGCCAA | 1.52 |
| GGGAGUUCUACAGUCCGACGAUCCUUGUAUUUUUCAGAUUAUUACAACACACUGUGCAGAAUUAGACAGAUGUUCCGUGGUGUUUGGUUUCCCUUUCUUCUCUCUCCUGCUCACUCUGCAUUAUAGCAGCAGCUGGAAUUCUCGGGUGCCAA | 2.75 |
| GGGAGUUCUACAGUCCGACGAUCAUGCAGAGGACUUGCUCAGACUCCUACAGGCUCCUGAUCACUGCAAGCCCCCAGUACCGGUCAGUUGAUUCUGUGGGCUGUAAACUGUGAAGUAUGGGUUCUCUCAGAGGUGGAAUUCUCGGGUGCCAA | 0.282 |
| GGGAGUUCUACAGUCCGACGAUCAACCAACUAAAAGAGAAGGAGGUCUUCAUGUUGAUAUUUUGCUUGGUUUUAUUUUACUGAUUUUAAAAGGUAUAUAGAAAAAUGUAGGCCUUUAAAAAGAAACAGCAUGUUGGAAUUCUCGGGUGCCAA | 1.75 |
| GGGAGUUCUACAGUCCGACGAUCCUGCAGCUUUAGUUACUGAUCUAGAAGCCCUGUAGUGUGAAGCGGCCGCUGCAGGCCAUUGUACACAAACUGGUUGUAUGUAUCAGACUGCAGAUGGGAGGAGCAGUGGUUGGAAUUCUCGGGUGCCAA | 0.457 |

Study 4
Target: Histone acetyltransferase KAT6A, winged helix 1, GST fusion (KAT6A, Homo sapiens, UniProt Q92794, residues 1-85)
Method: protein binding microarray
Form: double-stranded DNA, one strand shown
Medium: in vitro
Concentration: not given
Notes: 8-mer, flanks averaged, mean of 2 arrays, mostly near background
Reference: not given
Direction: higher = stronger binding
Residues (chain): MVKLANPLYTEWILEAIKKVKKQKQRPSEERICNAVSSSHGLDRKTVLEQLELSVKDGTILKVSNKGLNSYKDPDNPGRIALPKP
| Strand | E-score |
| --- | --- |
| CCTCTCCC | -0.127 |
| AGCACCTC | -0.0768 |
| AATCGGAG | -0.128 |
| GTGGCGAA | -0.00383 |
| AATTGGAC | -0.158 |
| AGAGTGCG | 0.173 |
| ATCCTACA | -0.306 |
| AACAGTAG | -0.117 |
| GACCGAGA | 0.116 |
| AGACGTCG | 0.127 |
| TCAACGAA | -0.202 |
| CCCAATAC | -0.0713 |
| CACCGCGG | 0.381 |
| CTGGGTTA | -0.143 |
| GCGCTAGA | 0.268 |
| CTATCCTA | -0.135 |

Repeated from above (study 1):
| Strand | fluorescence intensity |
| --- | --- |
| GCTGACCCTATAACGCGCGTGAAGTAACAGCGATCTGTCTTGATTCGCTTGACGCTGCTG | 77.9 a.u. |
| CTTGCCATACCTTCACACGGGGTTCTTTGAGGCACTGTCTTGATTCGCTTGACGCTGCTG | 84.7 a.u. |
| CTTTCCCGATCTTGTCACGTGGGTGTAGCACATTTGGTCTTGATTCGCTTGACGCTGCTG | 4790 a.u. |
| ATGGACCCGCATAGAAACGTGAGACTGAGAGGATATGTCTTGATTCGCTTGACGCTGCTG | 122 a.u. |
| AAGATATATGAATAGGACGTGTCGGTAGAACTAGTAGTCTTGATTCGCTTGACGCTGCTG | 72.2 a.u. |
